Assay results collected from several papers.
Compare with care: the assays were run in different laboratories.

CC(=O)OCCn1c2ccc([N+](=O)[O-])cc2c(=O)n1Cc1ccccc1
IC50 (Leishmania amazonensis; parasite growth, resazurin; promastigote): 2130 nM

O=C(Oc1cc(OC(=O)c2cc(O)c(O)c(O)c2)c2ccccc2c1)c1cc(O)c(O)c(O)c1
IC50 (Human alphaherpesvirus 2; viral replication, inhibitor, qPCR; BEAS-2B): 1970 nM

COC1C=COC2(C)Oc3c(C)c(O)c4c(c3C2=O)C2=NC3(CCN(CC(C)C)CC3)NC2=C(NC(=O)C(C)=CC=CC(C)C(O)C(C)C(O)C(C)C(OC(=O)Nc2cccnn2)C1C)C4=O (stereo not drawn)
IC50 (Mycobacteroides abscessus; bacterial growth; subsp. abscessus clinical isolate; slow grower): 19 nM

COCCn1c2ccc([N+](=O)[O-])cc2c(=O)n1Cc1ccccc1
IC50 (Leishmania amazonensis; parasite growth, resazurin; promastigote): 1710 nM

CNCc1ccc2c(c1)C[C@H](CNC(=N)N)[C@H]2NC(=O)C(=O)Nc1ccc(Cl)c(F)c1
IC50 (HIV-1; pseudovirus infection, Env pseudovirus neutralisation; TZM-bl, clade G isolate C1_B5): 16500 nM

O=C(O)CN1C(=O)[C@H](Cc2ccccc2)NC2(C1=O)C1CC3CC(C1)CC2C3 (stereo partly drawn)
IC50 (Trypanosoma brucei; parasite growth; pH 7.4, blood stage): 111000 nM

O=c1c2cc([N+](=O)[O-])ccc2n(CCO)n1Cc1ccccc1
IC50 (Leishmania amazonensis; parasite growth, resazurin; promastigote): 1260 nM

O=C1NC(=O)C2(NC1Cc1ccccc1)C1CC3CC(C1)CC2C3 (stereo not drawn)
IC50 (Trypanosoma brucei; parasite growth; pH 7.4, blood stage): 18500 nM

NC(=O)CCCn1c2ccc([N+](=O)[O-])cc2c(=O)n1Cc1ccccc1
IC50 (Leishmania amazonensis; parasite growth, resazurin; promastigote): 770 nM

CN1CC(=O)N(CC(=O)O)C(=O)C12CCCCCC2
IC50 (Trypanosoma brucei; parasite growth; pH 7.4, blood stage): > 300000 nM

CCCOC(=O)N1c2cc(CNC)ccc2[C@H](NC(=O)C(=O)Nc2ccc(Cl)c(F)c2)[C@H]1CNC(=N)N
IC50 (Human immunodeficiency virus 1; viral infection, Env pseudovirus; TZM-bl, C2101.c01 CRF01_AE): > 100000 nM

CCCCCCCCCCCCCCC[C@@H](O)[C@H](CO)NC(=O)N[C@@H](CCC(N)=O)C(=O)N[C@@H](CCCCN)C(=O)N[C@H](C(=O)N[C@@H](C)C(=O)N[C@@H](CCCNC(=N)N)C(=O)N[C@@H](CC(C)C)C(=O)N[C@@H](CCC(N)=O)C(=O)N[C@H](C(=O)N[C@@H](CC(C)C)C(=O)N[C@@H](Cc1c[nH]c2ccccc12)C(=O)N[C@@H](CC(C)C)C(=O)N[C@@H](CCC(N)=O)C(=O)N[C@H](C(=O)NCC(=O)N[C@H](C(=O)N[C@@H](CC(C)C)C(=O)N[C@@H](CC(C)C)C(N)=O)C(C)C)[C@@H](C)CC)[C@@H](C)O)[C@@H](C)CC
IC50 (HIV-1 HXB2; viral infection, luciferase reporter; TZM-bl): > 4000 nM

A few entries again:
CCCOC(=O)N1c2cc(CNC)ccc2[C@H](NC(=O)C(=O)Nc2ccc(Cl)c(F)c2)[C@H]1CNC(=N)N
IC50 (Human immunodeficiency virus 1; viral infection, Env pseudovirus; TZM-bl, C2101.c01 CRF01_AE): > 100000 nM

CC(=O)OCCn1c2ccc([N+](=O)[O-])cc2c(=O)n1Cc1ccccc1
IC50 (Leishmania amazonensis; parasite growth, resazurin; promastigote): 2130 nM
